{"data": "Assay results from different studies", "cell line": "human red blood cells", "note": "Lines come from different studies, so protocols differ."}
{"SMILES": "CC(C)C[C@H](NC(=O)CNC(=O)[C@H](CCCCN)NC(=O)[C@H](CC(C)C)NC(=O)[C@H](CC(C)C)NC(=O)[C@H](CC(C)C)NC(=O)[C@H](CCCCN)NC(=O)CNC(=O)[C@H](CC(C)C)NC(=O)[C@H](CC(C)C)NC(=O)[C@@H](N)CCCCN)C(=O)N[C@@H](CC(C)C)C(=O)N[C@@H](CCCCN)C(=O)O", "conditions": "1 h, 37 °C, 10% hemolysis", "measurement": "lowest hemolytic concentration", "result": "> 256 µg/mL"}
{"SMILES": "CC(=O)N[C@@H](CCCCN)C(=O)N[C@@H](CCCCN)C(=O)N[C@@H](CC(C)C)C(=O)N[C@@H](CC(C)C)C(=O)N[C@@H](CCCCN)C(=O)N[C@@H](CC(C)C)C(=O)N[C@@H](CC(C)C)C(=O)N[C@@H](C)C(=O)N[C@@H](CCCCN)C(=O)N1CCC[C@H]1C(=O)N[C@@H](CC(C)C)C(=O)N[C@@H](CCCCN)C(=O)N[C@@H](CC(C)C)C(=O)N[C@@H](CC(C)C)C(=O)N[C@@H](CCCCN)C(N)=O", "test": "haemolysis", "conditions": "6 h, 37 °C, 5% haematocrit in PBS", "measurement": "MHC10", "result": "> 160 µM"}
{"SMILES": "CC[C@H](C)[C@H](NC(=O)[C@H](CCCNC(=N)N)NC(=O)[C@@H](NC(=O)[C@H](CC(C)C)NC(=O)[C@H](Cc1c[nH]c2ccccc12)NC(=O)[C@H](Cc1ccc(O)cc1)NC(=O)[C@@H](NC(=O)[C@H](CO)NC(=O)[C@@H](NC(=O)[C@H](CCCNC(=N)N)NC(=O)[C@H](CCC(N)=O)NC(=O)[C@H](CCCNC(=N)N)NC(=O)[C@@H]1CCCN1C(=O)[C@H](CC(C)C)NC(=O)[C@H](CO)NC(=O)[C@@H](NC(=O)[C@H](CC(C)C)NC(=O)[C@@H]1CCCN1C(=O)[C@H](CCC(N)=O)NC(=O)[C@H](CCCCN)NC(=O)[C@H](Cc1c[nH]cn1)NC(=O)[C@H](CS)NC(=O)[C@H](CCCNC(=N)N)NC(=O)[C@H](CCCCN)NC(=O)[C@H](CO)NC(=O)[C@H](CC(C)C)NC(=O)[C@H](CO)NC(=O)[C@H](Cc1ccccc1)NC(=O)[C@H](CC(C)C)NC(=O)[C@H](CCCCN)NC(=O)[C@H](Cc1c[nH]cn1)NC(=O)[C@@H](NC(=O)[C@@H](NC(=O)[C@H](CCCCN)NC(=O)[C@H](CCC(N)=O)NC(=O)[C@H](C)NC(=O)[C@H](CCCCN)NC(=O)[C@H](CC(C)C)NC(=O)[C@H](Cc1ccccc1)NC(=O)[C@H](CC(C)C)NC(=O)[C@H](CCC(N)=O)NC(=O)[C@H](CCCCN)NC(=O)[C@@H](N)CCSC)[C@@H](C)CC)C(C)C)[C@@H](C)CC)[C@@H](C)O)[C@@H](C)O)[C@@H](C)O)C(=O)O", "test": "hemolysis", "measurement": "HC50", "result": "27.7 µmol/L"}
{"SMILES": "CC(C)C[C@H](NC(=O)CNC(=O)[C@H](CCCCN)NC(=O)[C@H](CC(C)C)NC(=O)[C@H](CC(C)C)NC(=O)[C@H](CC(C)C)NC(=O)[C@@H](N)CCCCN)C(=O)NCC(=O)N[C@@H](CCCCN)C(=O)N[C@@H](CC(C)C)C(=O)N[C@@H](CC(C)C)C(=O)N[C@@H](CC(C)C)C(=O)N[C@@H](CCCCN)C(=O)O", "conditions": "1 h, 37 °C, 10% hemolysis", "measurement": "lowest hemolytic concentration", "result": "> 256 µg/mL"}
{"SMILES": "CC(=O)N[C@@H](CCCCN)C(=O)N[C@@H](CCCCN)C(=O)N[C@@H](C)C(=O)N[C@@H](CC(C)C)C(=O)N[C@@H](CCCCN)C(=O)N[C@@H](CC(C)C)C(=O)N[C@@H](CC(C)C)C(=O)N[C@@H](CCCCN)C(=O)N[C@@H](CCCCN)C(=O)N1CCC[C@H]1C(=O)N[C@@H](CC(C)C)C(=O)N[C@@H](CCCCN)C(=O)N[C@@H](CC(C)C)C(=O)N[C@@H](CC(C)C)C(=O)N[C@@H](CCCCN)C(N)=O", "test": "haemolysis", "conditions": "6 h, 37 °C, 5% haematocrit in PBS", "measurement": "MHC10", "result": "> 160 µM"}
{"SMILES": "CC[C@H](C)[C@H](NC(=O)[C@H](CCCCN)NC(=O)[C@H](CC(C)C)NC(=O)[C@H](CCSC)NC(=O)[C@H](CO)NC(=O)[C@H](C)NC(=O)CNC(=O)[C@H](CCCCN)NC(=O)[C@H](CCCCN)NC(=O)[C@H](CC(N)=O)NC(=O)CNC(=O)[C@H](CCCCN)NC(=O)[C@H](CC(C)C)NC(=O)[C@H](CCCNC(=N)N)NC(=O)[C@@H](NC(=O)[C@H](CC(C)C)NC(=O)[C@H](Cc1ccc(O)cc1)NC(=O)[C@H](CCCCN)NC(=O)[C@H](C)NC(=O)[C@H](CCCCN)NC(=O)[C@@H]1CCCN1C(=O)[C@H](CCCCN)NC(=O)CNC(=O)[C@H](CCCNC(=N)N)NC(=O)[C@H](CC(C)C)NC(=O)[C@H](CCC(N)=O)NC(=O)[C@@H](N)Cc1ccccc1)C(C)C)C(=O)N[C@@H](CC(C)C)C(=O)N[C@@H](C)C(=O)N[C@H](C(=O)N[C@H](C(=O)N[C@@H](CCCNC(=N)N)C(=O)N1CCC[C@H]1C(=O)N[C@H](C(=O)N[C@@H](CCCCN)C(=O)N[C@@H](CCC(N)=O)C(=O)N[C@@H](CO)C(=O)N[C@@H](Cc1ccccc1)C(=O)N1CCC[C@H]1C(=O)N[C@@H](CO)C(=O)N[C@@H](CC(C)C)C(=O)N1CCC[C@H]1C(=O)O)[C@@H](C)O)[C@@H](C)O)[C@@H](C)O", "test": "hemolysis", "measurement": "HC50", "result": "18.4 µmol/L"}
{"SMILES": "CCCCCCCC(=O)N[C@@H](CCCCN)C(=O)N[C@@H](CCCCN)C(=O)N[C@@H](C)C(=O)N[C@@H](CC(C)C)C(=O)N[C@@H](CCCCN)C(=O)N[C@@H](CC(C)C)C(=O)N[C@@H](C)C(=O)N[C@@H](CCCCN)C(=O)N[C@@H](CCCCN)C(=O)N1CCC[C@H]1C(=O)N[C@@H](CC(C)C)C(=O)N[C@@H](CCCCN)C(=O)N[C@@H](CC(C)C)C(=O)N[C@@H](CC(C)C)C(=O)N[C@@H](CCCCN)C(N)=O", "test": "haemolysis", "conditions": "6 h, 37 °C, 5% haematocrit in PBS", "measurement": "MHC10", "result": "> 160 µM"}
{"SMILES": "CC[C@H](C)[C@H](NC(=O)[C@H](CCCNC(=N)N)NC(=O)[C@@H]1CCCN1C(=O)[C@H](CCCNC(=N)N)NC(=O)[C@@H](N)CCCNC(=N)N)C(=O)N[C@@H](Cc1c[nH]cn1)C(=O)N[C@@H](Cc1ccccc1)C(=O)N[C@@H](CCCNC(=N)N)C(=O)N[C@@H](Cc1ccccc1)C(=O)N1CCC[C@H]1C(=O)N[C@@H](CC(N)=O)C(=O)N[C@@H](CCCNC(=N)N)C(=O)N1CCC[C@H]1C(=O)N[C@@H](Cc1ccccc1)C(=O)N[C@H](C(=O)N1CCC[C@H]1C(=O)N[C@@H](CO)C(=O)N[C@@H](CCCNC(=N)N)C(=O)N[C@@H](CS)C(=O)N[C@@H](CC(N)=O)C(=O)N[C@@H](Cc1c[nH]cn1)C(=O)N[C@@H](CCCNC(=N)N)C(=O)N[C@@H](Cc1ccccc1)C(=O)N1CCC[C@H]1C(=O)N[C@@H](Cc1ccccc1)C(=O)N[C@@H](CCC(N)=O)C(=O)N1CCC[C@H]1C(=O)N[C@@H](Cc1ccccc1)C(=O)N[C@@H](Cc1ccc(O)cc1)C(=O)N[C@@H](Cc1c[nH]c2ccccc12)C(=O)N1CCC[C@H]1C(=O)N[C@@H](Cc1c[nH]cn1)C(=O)N[C@@H](CCCNC(=N)N)C(=O)N[C@@H](Cc1ccc(O)cc1)C(=O)N[C@@H](CC(C)C)C(=O)N[C@H](C(=O)N[C@@H](Cc1ccc(O)cc1)C(=O)N[C@@H](CCCNC(=N)N)C(=O)N[C@@H](Cc1ccc(O)cc1)C(=O)N[C@@H](Cc1ccccc1)C(=O)N1CCC[C@H]1C(=O)N[C@@H](CCCNC(=N)N)C(=O)N[C@@H](CCCNC(=N)N)C(=O)N[C@@H](CCCNC(=N)N)C(=O)N[C@@H](CC(C)C)C(=O)N[C@@H](CCC(N)=O)C(=O)N[C@@H](CCCNC(=N)N)C(=O)O)[C@@H](C)O)C(C)C", "test": "hemolysis", "measurement": "HC50", "result": "4.14 µmol/L"}
{"SMILES": "CC(C)C[C@H](NC(=O)CNC(=O)CNC(=O)CNC(=O)[C@H](CC(N)=O)NC(=O)[C@H](Cc1ccccc1)NC(=O)[C@@H]1CCCN1C(=O)[C@H](CC(N)=O)NC(=O)[C@H](Cc1c[nH]cn1)NC(=O)[C@H](CO)NC(=O)[C@H](CCCNC(=N)N)NC(=O)[C@H](CC(=O)O)NC(=O)[C@H](CO)NC(=O)[C@H](CC(C)C)NC(=O)[C@@H](NC(=O)[C@@H](N)Cc1ccc(O)cc1)[C@@H](C)O)C(=O)N[C@@H](CCCCN)C(=O)N[C@@H](CCCCN)C(=O)N[C@@H](CC(C)C)C(=O)N[C@@H](CC(C)C)C(=O)N[C@@H](CC(C)C)C(=O)N[C@@H](CC(C)C)C(=O)N[C@@H](CC(C)C)C(=O)N[C@@H](CCCCN)C(=O)N[C@@H](CCCCN)C(=O)N[C@@H](CC(C)C)C(=O)NCC(=O)O", "conditions": "1 h, 37 °C, 10% hemolysis", "measurement": "lowest hemolytic concentration", "result": "> 256 µg/mL"}
{"SMILES": "CC[C@H](C)[C@H](NC(=O)[C@H](CCCCN)NC(=O)[C@H](CCCCN)NC(=O)[C@H](Cc1ccccc1)NC(=O)[C@@H](NC(=O)[C@@H](NC(=O)[C@H](CCCNC(=N)N)NC(=O)[C@H](Cc1ccccc1)NC(=O)[C@@H](NC(=O)[C@H](CCCCN)NC(=O)[C@H](CCCCN)NC(=O)[C@@H](N)CCSC)[C@@H](C)CC)C(C)C)[C@@H](C)CC)C(=O)N[C@@H](CC(C)C)C(=O)N[C@@H](CCCCN)C(=O)N[C@@H](CCCNC(=N)N)C(=O)N[C@@H](CC(C)C)C(=O)N[C@H](C(=O)N[C@H](C(=O)O)C(C)C)[C@@H](C)CC", "conditions": "8 µg/mL, 1 h, 37 °C", "how to read": "reference: Triton X-100", "measurement": "haemolysis", "result": "7.65%"}
{"note": "Repeated from above:"}
{"SMILES": "CCCCCCCC(=O)N[C@@H](CCCCN)C(=O)N[C@@H](CCCCN)C(=O)N[C@@H](C)C(=O)N[C@@H](CC(C)C)C(=O)N[C@@H](CCCCN)C(=O)N[C@@H](CC(C)C)C(=O)N[C@@H](C)C(=O)N[C@@H](CCCCN)C(=O)N[C@@H](CCCCN)C(=O)N1CCC[C@H]1C(=O)N[C@@H](CC(C)C)C(=O)N[C@@H](CCCCN)C(=O)N[C@@H](CC(C)C)C(=O)N[C@@H](CC(C)C)C(=O)N[C@@H](CCCCN)C(N)=O", "test": "haemolysis", "conditions": "6 h, 37 °C, 5% haematocrit in PBS", "measurement": "MHC10", "result": "> 160 µM"}
